Results of several laboratories.
Each line is one published result; not all experiments were run side by side. ± gives the spread as reported.
CDK5 with p25: Cyclin-dependent kinase 5, with p25 (CDK5, Homo sapiens, UniProt Q00535)
Sequence of UniProt Q00535 (whole entry, looked up): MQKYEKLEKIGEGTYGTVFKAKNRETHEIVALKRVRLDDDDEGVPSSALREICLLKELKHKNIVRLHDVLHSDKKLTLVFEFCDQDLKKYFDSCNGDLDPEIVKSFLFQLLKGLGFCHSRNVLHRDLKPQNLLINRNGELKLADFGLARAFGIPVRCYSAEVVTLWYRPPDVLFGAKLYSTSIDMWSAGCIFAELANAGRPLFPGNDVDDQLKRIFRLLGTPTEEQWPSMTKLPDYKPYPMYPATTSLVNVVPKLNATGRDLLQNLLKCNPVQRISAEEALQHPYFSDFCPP
B1: chain MSEILPYGEDKMGRFGADPEGSDLSFSCRLQDTNSFFAGNQAKRPPKLGQIGRAKRVVIEDDRIDDVLKGMGEKPPSGV
B2: peroxiredoxin-2 (human); sequence looked up; chain ASGNARIGKPAPDFKATAVVDGAFKEVKLSDYKGKYVVLFFYPLDFTFVCPTEIIAFSNRAEDFRKLGCEVLGVSVDSQFTHLAWINTPRKEGGLGPLNIPLLADVTRRLSEDYGVLKTDEGIAYRGLFIIDGKGVLRQITVNDLPVGRSVDEALRLVQAFQYTDEHGEVCPAGWKPGSDTIKPNVDDSKEYFSKHN
Sequence of UniProt Q64663 (whole entry, unmodified, looked up): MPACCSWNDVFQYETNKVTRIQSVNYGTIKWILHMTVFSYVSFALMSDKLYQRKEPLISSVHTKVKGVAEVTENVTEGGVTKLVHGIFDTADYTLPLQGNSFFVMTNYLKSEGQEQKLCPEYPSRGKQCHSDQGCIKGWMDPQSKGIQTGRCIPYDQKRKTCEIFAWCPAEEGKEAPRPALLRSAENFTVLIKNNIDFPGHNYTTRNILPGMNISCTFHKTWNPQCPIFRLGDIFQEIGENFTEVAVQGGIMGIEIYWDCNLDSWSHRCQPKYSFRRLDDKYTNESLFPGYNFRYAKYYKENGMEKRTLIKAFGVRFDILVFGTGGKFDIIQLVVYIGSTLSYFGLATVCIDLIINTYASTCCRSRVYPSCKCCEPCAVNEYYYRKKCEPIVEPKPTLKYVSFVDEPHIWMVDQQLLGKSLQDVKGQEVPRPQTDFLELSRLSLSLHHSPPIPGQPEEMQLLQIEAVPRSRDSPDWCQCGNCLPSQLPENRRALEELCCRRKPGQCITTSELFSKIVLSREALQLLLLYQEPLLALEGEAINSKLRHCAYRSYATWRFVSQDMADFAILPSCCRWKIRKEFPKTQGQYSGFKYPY
Sequence of UniProt Q9UQM7 (whole entry, unmodified, looked up): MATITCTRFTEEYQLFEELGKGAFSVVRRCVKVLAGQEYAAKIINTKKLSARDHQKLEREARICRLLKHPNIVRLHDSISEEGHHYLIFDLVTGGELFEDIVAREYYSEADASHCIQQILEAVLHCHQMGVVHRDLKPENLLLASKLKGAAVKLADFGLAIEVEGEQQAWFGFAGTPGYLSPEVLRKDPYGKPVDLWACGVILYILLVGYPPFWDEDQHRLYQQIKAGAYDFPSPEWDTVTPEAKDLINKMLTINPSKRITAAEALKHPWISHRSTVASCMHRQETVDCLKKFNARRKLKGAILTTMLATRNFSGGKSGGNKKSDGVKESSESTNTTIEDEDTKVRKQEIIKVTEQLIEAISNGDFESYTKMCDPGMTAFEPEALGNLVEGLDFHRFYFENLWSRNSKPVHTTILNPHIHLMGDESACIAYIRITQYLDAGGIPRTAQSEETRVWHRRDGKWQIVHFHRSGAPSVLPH
Sequence of UniProt Q5ANA3 (whole entry, looked up): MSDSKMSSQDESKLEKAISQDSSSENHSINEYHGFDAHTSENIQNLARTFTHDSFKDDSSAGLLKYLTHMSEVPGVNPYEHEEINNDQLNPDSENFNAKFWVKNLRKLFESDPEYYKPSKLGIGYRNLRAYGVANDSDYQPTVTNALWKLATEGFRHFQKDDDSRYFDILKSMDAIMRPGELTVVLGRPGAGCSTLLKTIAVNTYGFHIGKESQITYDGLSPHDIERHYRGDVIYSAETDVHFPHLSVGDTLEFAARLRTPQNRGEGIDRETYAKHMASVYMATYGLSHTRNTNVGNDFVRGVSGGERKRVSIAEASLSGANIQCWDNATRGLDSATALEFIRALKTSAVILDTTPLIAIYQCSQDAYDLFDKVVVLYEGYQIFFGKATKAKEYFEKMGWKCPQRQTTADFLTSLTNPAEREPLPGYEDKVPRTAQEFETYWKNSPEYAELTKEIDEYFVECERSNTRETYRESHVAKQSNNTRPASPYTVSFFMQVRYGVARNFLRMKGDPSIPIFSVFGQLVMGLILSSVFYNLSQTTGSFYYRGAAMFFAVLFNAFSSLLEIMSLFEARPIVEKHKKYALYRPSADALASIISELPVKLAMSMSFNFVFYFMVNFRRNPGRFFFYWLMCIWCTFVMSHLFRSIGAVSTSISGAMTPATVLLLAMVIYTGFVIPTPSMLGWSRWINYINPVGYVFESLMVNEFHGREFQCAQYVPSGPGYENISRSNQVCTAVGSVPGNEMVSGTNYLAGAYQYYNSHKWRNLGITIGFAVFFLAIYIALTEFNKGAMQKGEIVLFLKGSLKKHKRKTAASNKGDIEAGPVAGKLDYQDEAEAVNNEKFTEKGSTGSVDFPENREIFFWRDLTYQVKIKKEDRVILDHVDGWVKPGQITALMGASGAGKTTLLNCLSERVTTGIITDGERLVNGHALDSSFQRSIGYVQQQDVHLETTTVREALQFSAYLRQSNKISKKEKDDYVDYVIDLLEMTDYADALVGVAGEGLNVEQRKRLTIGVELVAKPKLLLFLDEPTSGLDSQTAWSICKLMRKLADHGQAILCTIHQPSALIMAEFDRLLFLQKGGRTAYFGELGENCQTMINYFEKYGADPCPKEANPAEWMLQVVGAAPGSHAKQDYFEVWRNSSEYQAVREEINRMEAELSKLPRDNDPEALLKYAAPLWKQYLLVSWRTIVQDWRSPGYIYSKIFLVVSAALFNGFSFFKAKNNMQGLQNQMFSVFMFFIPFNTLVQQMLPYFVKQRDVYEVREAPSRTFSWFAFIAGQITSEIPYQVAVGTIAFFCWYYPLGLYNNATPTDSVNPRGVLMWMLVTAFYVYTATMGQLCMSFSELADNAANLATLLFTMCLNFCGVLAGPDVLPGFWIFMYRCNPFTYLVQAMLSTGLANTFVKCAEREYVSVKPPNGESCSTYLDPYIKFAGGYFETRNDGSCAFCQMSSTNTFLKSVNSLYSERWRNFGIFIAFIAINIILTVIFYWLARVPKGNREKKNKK

colistin — MIC (Enterobacter cloacae; clinical isolate RKI 546/13): 2 mg/L
B1 — -TΔS (CAMK2A (Homo sapiens, UniProt Q9UQM7, D135N); binding, ITC; D135N kinase domain): -7.68 kJ/mol
KEAWWDRCLSVINLMSSKMLQINA — activity change (CDK5 with p25; phosphotransferase activity, radiometric; peptide; concentration not given, 10% DMSO, with: histone substrate; reference: p5-WT peptide): 26%
human ME2 A65V mutant — activation fold (enzyme activity, activator, NADH absorbance; recombinant enzyme; range over 0 to 5 mM, pH 7.4; reference: wild type): 0.7
KEAFWDRCLSVINLMSSKMVQINA — activity change (CDK5 with p25; phosphotransferase activity, radiometric; peptide; concentration not given, 10% DMSO, with: histone substrate; reference: p5-WT peptide): 17%
milbemycin oxime — fraction bound (CDR1 (Candida albicans, UniProt Q5ANA3); binding, microscale thermophoresis; 9.77 nM): 16.9%
11-deoxycorticosterone — rate constant k1 (CYP11B2 (human); substrate binding, stopped-flow global kinetic fitting; purified enzyme; 3-state conformational selection model, with: equimolar adrenodoxin): 0.335 ± 0.0299 s⁻¹
B2 (peroxiredoxin-2) — log2 fold change (CYB5R4 knockout human cells; PP6 interaction, 3xFLAG-PP6C IP-MS; concentration not given; reference: CYB5R4 KO over parental): 0.0435
BzATP — normalized current (P2X purinoceptor 7 (P2rx7, Rattus norvegicus, UniProt Q64663, I214A/Q143A/R125A); ion current, agonist, two-electrode voltage clamp; Xenopus laevis oocytes; 100 µM; reference: 100 µM ATP current): 1
human ME2 K57S — Hill coefficient (enzyme activity, NADH absorbance; without fumarate, with: L-malate varied): 1 ± 0.01
SRSF1 (human) — log2 fold change (PP6C (human); co-immunoprecipitation, IP-MS; CYB5R4 knockout cells; concentration not given; reference: CYB5R4 knockout over parental): -0.26
KEAFWDRCLSVIELMSSKMLQINA — activity change (CDK5 with p25; phosphotransferase activity, radiometric; peptide; concentration not given, 10% DMSO, with: histone substrate; reference: p5-WT peptide): 62%
Malic enzyme 2 S106K (human) — activation fold (enzyme activity, activator, NADH absorbance; recombinant enzyme; range over 0 to 5 mM, pH 7.4; reference: wild type): 1
KEAFWDRCASVINLMSSKMLQINA — activity change (CDK5 with p25; phosphotransferase activity, radiometric; peptide; concentration not given, 10% DMSO, with: histone substrate; reference: p5-WT peptide): 42%
human ME2 L79F — Hill coefficient (enzyme activity, NADH absorbance; without fumarate, with: L-malate varied): 1 ± 0.01

Some of these lines once more:
KEAFWDRCLSVIELMSSKMLQINA — activity change (CDK5 with p25; phosphotransferase activity, radiometric; peptide; concentration not given, 10% DMSO, with: histone substrate; reference: p5-WT peptide): 62%
